Measurements gathered from unrelated publications.
Protocols differ between the studies behind these lines.
RET M918T: Proto-oncogene tyrosine-protein kinase receptor Ret (RET, Homo sapiens, UniProt P07949, M918T)
RET V804M: Proto-oncogene tyrosine-protein kinase receptor Ret (RET, Homo sapiens, UniProt P07949, V804M)
RET: Proto-oncogene tyrosine-protein kinase receptor Ret (RET, Homo sapiens, UniProt P07949)

CNC(=O)C1CCN(c2cc(C)c(F)cc2NC(=O)c2ccc(-c3cc(O)ccc3C)c(C)c2)CC1 has a remaining binding of 27% (RET M918T; binding, competition with immobilised ligand; 1 µM).
The remaining binding of CNC1C[S+]2CC[S+]3CC[S+](C1)[Ru-4]321([N]=C=S)[n]2c3ccc(OC)cc3c3c4c(c5cc(F)c[n+]1c5c32)C(=O)NC4=O (centres unmarked) is reported as 100% (Proto-oncogene tyrosine-protein kinase receptor Ret (RET, Homo sapiens, UniProt P07949, V804L); KinomeScan; 0.1 µM; reference: untreated).
Nc1ncc2c(n1)-c1c([nH]c3ccc(C4=CCOCC4)cc13)CCC2 has a remaining binding of 100% (RET M918T; binding, competition with immobilised ligand; 1 µM).
Cc1cnc2nc1Nc1cccc(c1)COC/C=C/COCc1cc(ccc1OCCN1CCOCC1)N2 gave a remaining binding of 11% (RET V804M; binding; 0.1 µM).
CCN1CCN(Cc2ccc(C(=O)Nc3ccc(C)c(NCc4cnc5[nH]ccc5c4OC)c3)cc2C(F)(F)F)CC1 gave a remaining binding of 0.2% (RET M918T; binding, competition with immobilised ligand; 1 µM).
The remaining binding of COc1c(Cl)cccc1Nc1c(-c2ccncc2C#C[C@@]2(C)CCCN2C(=O)/C=C/CN(C)C)[nH]c2c1C(=O)NCC2 is reported as 87% (RET M918T; binding, competition with immobilised ligand; 3 µM).
For Cc1ccc(-c2c(/C=C(\C#N)C(=O)NC(C)C)n(CCCO)c3ncnc(N)c23)cc1, the remaining binding was 26% (RET; cell-free assay, competition with immobilised ligand; 1 µM).
For CC(C)=CC1OC(C)(C)C2C=C3C(=O)C(Cl)=CC(O)C3C3C(O)C4OC4C(=O)C132 (centres unmarked), the remaining binding was 88% (RET M918T; cell-free assay, competition with immobilised ligand; 10 µM).
For C=CC(=O)N1CCCC(n2c(=O)c3ncccc3n(Cc3ccc(Oc4ccccc4)cc3)c2=O)C1 (centres unmarked), the remaining binding was 91% (RET; cell-free assay, competition with immobilised ligand; 1 µM).
With Cc1cc(NC(=O)[C@H](O)c2cc(F)cc(F)c2)ccc1-c1cnc(N)c(C(=O)NC(C)C)c1 the remaining binding was 75% (RET M918T; binding, competition with immobilised ligand; 10 µM).
With C=CC(=O)N1CCc2ccc(-n3c(=O)ccc4cnc5ccc(-c6cnn(C)c6)cc5c43)cc21 the remaining binding was 100% (RET V804M; KINOMEscan; 1 µM; reference: DMSO control).
